Assay results from different studies.
Every numbered part comes from another study and shows a few of its results, in no order.

Block 1 — method: protein binding microarray; molecule type: double-stranded DNA, one strand shown; sample: in vitro; concentration: not given; baseline: not given; direction: higher = stronger binding
Target: Histone acetyltransferase KAT6A, winged helix 1, GST fusion (KAT6A, Homo sapiens, UniProt Q92794, residues 1-85)
Setting: 8-mer, flanks averaged, mean of 2 arrays, mostly near background
Target sequence (chain): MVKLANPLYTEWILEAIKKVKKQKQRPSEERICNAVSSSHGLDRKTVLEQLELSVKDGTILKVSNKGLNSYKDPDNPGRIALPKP
| Oligonucleotide | E-score |
| --- | --- |
| AAACAGCC | -0.18 |
| AGTTGTAT | -0.151 |
| AAAGGAGT | -0.0438 |
| GGCCCAGA | -0.0524 |
| AGTTGCGG | 0.0945 |
| GTGTAGCA | -0.0306 |
| ATTCATTC | -0.184 |
| CTTGTTCA | -0.183 |
| GACTGCGA | 0.0826 |
| AGTACACG | 0.0256 |
| GAGAAAGA | -0.105 |
| AATCCAGG | -0.211 |
| CCTAGGGC | -0.0285 |
| AGAATATC | -0.0873 |
| ACAGTTCC | 0.14 |
| CCACAAAA | -0.129 |
| TCAGATGA | -0.225 |
| TCTGCTCA | -0.212 |

Block 2 — method: Spec-seq; molecule type: double-stranded DNA, one strand shown; sample: in vitro; concentration: not given; setting: whole probe, mean of replicates; baseline: not given; direction: lower = stronger binding; all sequences stand within: GAGTCGTCTCGTCAGCAC … CCGTAGAGCACTCAGGTC
Target: Transcription factor SOX-2, HMG box (Sox2, Mus musculus, UniProt P48432, residues 41-119)
Chain of UniProt P48432 (41-119, looked up): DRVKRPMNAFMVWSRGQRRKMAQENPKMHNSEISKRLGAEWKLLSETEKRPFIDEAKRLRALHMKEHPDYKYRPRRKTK
| Oligonucleotide | relative binding energy [ln ratio] |
| --- | --- |
| CATTTGA | -0.247 |
| CATCTGT | 0.315 |
| CATCGTG | 0.49 |
| CATAGCT | -0.289 |
| AAGGGTT | 0.0301 |
| CGTGGTT | 1.08 |
| GCAAGTT | 1.09 |
| ATTGGTT | -0.271 |
| GCGCGTT | 1.34 |
| CGTAGTT | 0.639 |
| CATCAAC | 0.585 |
| CATTCCA | 0.317 |
| CAGAGTT | 0.944 |
| CATATAA | -0.552 |
| CACTGTT | -0.824 |
| GCCTGTT | 0.59 |
| TTGCGTT | 1.14 |
| CATATAG | -0.432 |

Block 3 — method: universal PBM; molecule type: double-stranded DNA, one strand shown; sample: in vitro; concentration: 600 nM; direction: higher = stronger binding
Target: Sal-like protein 4, full length isoform A (SALL4, Homo sapiens, UniProt Q9UJQ4, residues 1-1053)
Chain of UniProt Q9UJQ4 (whole entry, looked up): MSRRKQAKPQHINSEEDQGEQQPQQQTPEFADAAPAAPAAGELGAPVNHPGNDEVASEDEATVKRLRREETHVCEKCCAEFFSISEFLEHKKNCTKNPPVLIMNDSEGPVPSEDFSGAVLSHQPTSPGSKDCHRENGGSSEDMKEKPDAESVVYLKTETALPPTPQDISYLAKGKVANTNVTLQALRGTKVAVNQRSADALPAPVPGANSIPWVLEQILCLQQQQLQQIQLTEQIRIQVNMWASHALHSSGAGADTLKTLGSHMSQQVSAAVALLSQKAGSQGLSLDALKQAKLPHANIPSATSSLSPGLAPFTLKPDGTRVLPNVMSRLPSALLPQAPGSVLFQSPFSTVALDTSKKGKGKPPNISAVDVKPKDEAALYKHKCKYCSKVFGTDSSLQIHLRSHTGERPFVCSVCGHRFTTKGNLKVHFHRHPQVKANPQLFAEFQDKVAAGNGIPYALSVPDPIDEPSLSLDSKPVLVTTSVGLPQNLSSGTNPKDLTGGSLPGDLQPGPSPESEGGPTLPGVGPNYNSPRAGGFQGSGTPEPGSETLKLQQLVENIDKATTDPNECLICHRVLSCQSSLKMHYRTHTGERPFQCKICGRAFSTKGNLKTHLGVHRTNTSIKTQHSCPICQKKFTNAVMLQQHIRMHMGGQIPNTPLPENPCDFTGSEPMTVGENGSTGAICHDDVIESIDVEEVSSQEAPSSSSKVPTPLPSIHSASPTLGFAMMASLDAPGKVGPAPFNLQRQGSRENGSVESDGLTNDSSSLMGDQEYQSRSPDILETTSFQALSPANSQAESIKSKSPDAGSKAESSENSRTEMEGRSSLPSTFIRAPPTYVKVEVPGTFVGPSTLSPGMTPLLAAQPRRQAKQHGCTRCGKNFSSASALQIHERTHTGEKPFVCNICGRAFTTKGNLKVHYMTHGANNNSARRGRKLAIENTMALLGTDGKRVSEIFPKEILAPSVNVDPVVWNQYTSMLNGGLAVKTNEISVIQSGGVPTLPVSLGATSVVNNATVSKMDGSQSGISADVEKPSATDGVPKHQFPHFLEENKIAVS
Setting: 8-mer, flanks averaged, mean of replicates
| Oligonucleotide | E-score |
| --- | --- |
| GAGATCGA | 0.0293 |
| ATCTTCCA | 0.0971 |
| GTCAGATA | 0.106 |
| ATGATTTC | 0.323 |
| TGTTAAAA | 0.295 |
| GTGTAGGA | 0.0472 |
| AGGAGCTC | -0.121 |
| CGCCGGCG | -0.222 |
| ACAGACGC | -0.134 |
| ACTTAGGA | 0.0224 |
| GATCTGGC | -0.129 |
| CGCGTCCG | -0.209 |
| GCGTGGGA | -0.154 |

Block 4 — method: RNA Bind-n-Seq; molecule type: RNA; sample: in vitro; concentration: 365 nM; baseline: no-protein control; direction: higher = stronger binding
Target: RNA binding protein fox-1 homolog 2, RRM domain, GST-SBP tag (RBFOX2, Homo sapiens, UniProt O43251-10, residues 100-194)
Setting: natural RNA segment, single round, ends assumed
All sequences stand within: GGGAGUUCUACAGUCCGACGAUC … UGGAAUUCUCGGGUGCCAA
Construct (chain): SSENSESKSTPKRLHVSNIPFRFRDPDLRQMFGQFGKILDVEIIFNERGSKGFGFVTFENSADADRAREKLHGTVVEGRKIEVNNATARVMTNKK
| Oligonucleotide | RBNS enrichment (R) |
| --- | --- |
| AGAAAUUUAAAAUAGCAUUAGAGCAAGUUGCUUGUCAUGGCUUGAAGAGCUUAACUUUGUCUUUUGGGUGAGUAGCUAUAGGUUUGAGAGAGGCUGGCUACUCCUAGUUC | 1.12 |
| CAGUGCCGAGUUGGCGGGAAAAGCAAAUUCUUUUGAAGUCUUAGUCUUUCCCUCAGUAGCGGUUUCUUUCAGGUUAACAAGAGGCAUUUGUGCACACACACAGGGCUCUU | 0.319 |
| UUGCGUUAUUGGCCUAGAUUUUGCUGCAGAUUAAAUCCUUUGAGGAUUCUCUUCUCUUUUACCAUUUUUCUGCGUGCUCUCACUCUCUCUUUCUCUCUCUAGCUUUUUAA | 0.732 |
| AGAUGGAGAUGAGGUACAUCAGGGGACCUUAAGAUGCCUGAGCCCAUCUUUUAACUCUAACACAGGGAUACUAACCUUUUUCCCUGGCUAAGACAGACUGAGGGCAUUGC | 0.426 |
| CUUGAGUGUGUCUGCGUGUUUACACCCGUCCCUCUGCUGGCCGCCCCCGUGCGAGCGGCACCCCUGCCCUGCCCUCCACAGAAUUGGGUUCCAAGGGCUGUUCCAGACAA | 0.377 |
| UUCUCCCUGCUUCAGUCUCCAGAGAACAUAAAUGGCCAAAAAUGUUAAGUCUGGCUAUAUUUGAAGGUUAUGACAUAAAGCCAGCAGCUUUAAUGGCUUUUAUGAAGUGA | 0.502 |
| AAAGCCAAUUCCAGUGUUGGACGUGACAGGUCUUGUGUUUAGGUCAAGGUGUCUCCUCUCAGUGCAGGGACAUGCCUGCUCUGUGGGGCAGGCGAGGACCCUGAAUCAUU | 1.15 |

Block 5 — method: RNA Bind-n-Seq; molecule type: RNA; sample: in vitro; concentration: 200 nM; setting: whole 134-nt RNA, ends assumed; with: 150 mM LiCl; baseline: input library; direction: higher = stronger binding; each molecule: 7-deaza-guanosine replaces G
Target: Fragile X messenger ribonucleoprotein 1, C-terminal low-complexity region (Fmr1, Mus musculus, UniProt P35922)
All sequences stand within: GGGAGUUCUACAGUCCGACGAUC … UGGAAUUCUCGGGUGUCAAGG
| Oligonucleotide | log2 enrichment |
| --- | --- |
| CCUCAAGUCCUGUGCUACACAUCGUAUGUACCGAAUCGGUUGGUUGGUUGGGGAAAGUAUUAUGUUACGCCGUUCGGAUCUGCACUUCCA | -0.0568 |
| AGUCCUGUGCUACACAUCGUAUGUACCGAAUCGGGGAAAGGGGUUUUUGGGGUGGGGAAAGUAUUAUGUUACGCCGUUCGGAUCUGCACU | -0.631 |
| UUUUUGAAUCAAUUUUUAAAACAUGCCAUUGUGUUUCAGGCUCGCGGGAUUGAUGUGCAACAAGUGUCUUUGGUUAUAAAUUAUGAUCUA | -1.37 |
| CAAGUCCUGUGCUACACAUCGUAUGUACCGAAUCGGUUUGGUUUUUGGAAAAAGGAAAGUAUUAUGUUACGCCGUUCGGAUCUGCACUUC | -1.1 |
| ACCUUCACGGCAUGGUGCAACUCCCACCUGCGGAAGGCAGGCACACAGAUCGAGAACAUUGAUGAGGACUUCCGAGACGGGCUCAAGCUC | 0.965 |
| CCUCAAGUCCUGUGCUACACAUCGUAUGUACCGAAUCGGGUGGUGGGGUGGGAAAGUAUUAUGUUACGCCGUUCGGAUCUGCACUUCCAG | -0.33 |

Block 6 — method: protein-binding microarray; molecule type: double-stranded DNA, one strand shown; sample: in vitro; concentration: 0.8 µM; setting: whole 60-bp probe, no competitor; direction: higher = stronger binding; all sequences stand within: … GTCTTGATTCGCTTGACGCTGCTG
Target: Centromere-binding protein 1, full length, N-terminal tag (CBF1, Saccharomyces cerevisiae, UniProt P17106, residues 1-351)
Chain of UniProt P17106 (whole entry, looked up): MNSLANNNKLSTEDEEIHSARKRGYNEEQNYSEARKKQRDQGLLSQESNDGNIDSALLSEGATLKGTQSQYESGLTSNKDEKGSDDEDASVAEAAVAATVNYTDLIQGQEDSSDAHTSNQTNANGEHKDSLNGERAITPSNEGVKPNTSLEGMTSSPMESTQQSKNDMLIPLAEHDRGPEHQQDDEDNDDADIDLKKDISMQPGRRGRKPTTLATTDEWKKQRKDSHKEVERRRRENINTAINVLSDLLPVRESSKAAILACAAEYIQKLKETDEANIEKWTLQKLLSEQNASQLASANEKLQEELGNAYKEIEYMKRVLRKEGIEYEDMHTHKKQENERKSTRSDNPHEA
| Oligonucleotide | fluorescence intensity |
| --- | --- |
| GAATTAATTTTTGTTCACGAGTAAGTACTTCAGTAG | 799 a.u. |
| CTATAGAATCCCCATCACGTACGAGTTGAAGAATTC | 568 a.u. |
| GAAAACCTTGGCACTCACACGTGGGACTAGCACTAG | 1570 a.u. |
| GAAGAGTTCTTCAAAAATCTGATGTAAAATTTATAG | 503 a.u. |
| TGTACGAAGCTATTGATCATTTCTATAGTAGTTAGG | 518 a.u. |
| GAAAACAGAGAAACGATCATGATGGGAAAGCGGTAG | 496 a.u. |
| CTAGTAATGGAAATTCACCTGCTTTGAATCGTTTTC | 515 a.u. |
| CTAAAGAAATATACCCACGCGTTCTTTACCCGGTTC | 540 a.u. |
| GAACAGAGAAACGATCATGATGGGAAAGCGGGGTAG | 512 a.u. |
| CCTAACTACTATAGACTCACCTTATAGCTTCGTACA | 479 a.u. |
| TGTACGAAGCTATGTGACCCAAATATAGTAGTTAGG | 584 a.u. |
| CTATGTGTGATATATTACATCAGAGGAAATAAATTC | 524 a.u. |
| CTAAACGTTGCCTTTGTCGTGATTTTGTGCGAGTTC | 563 a.u. |
| CCTAACTACTATAGTGATGTAATATAGCTTCGTACA | 524 a.u. |
| GAAGGCACAGGAAACCCCGTGCACTCTGCCACTTAG | 701 a.u. |
| GAAATAGAAGCAAATGACATCAGAATATATATATAG | 577 a.u. |
| GAATCGTCGATATGCGTCACCAGGATGTCTATTTAG | 502 a.u. |
| CTACATATTTATGATAGCATCAGATTCATTTCCTTC | 513 a.u. |
| CTATGTTTTGATTCTGTCATGAGTATTACTTATTTC | 549 a.u. |
| GAAAAGATTGGCGGTGGTCTGACATGTTGATTATAG | 593 a.u. |
| GAAGAAGACGTCATACTCGTGGTTATATAATCTTAG | 611 a.u. |
| GAAGCAGGGGAGAATGTGGTGACGGCGGAGCCGTAG | 453 a.u. |
| CTAAGTTGATAACGTCAGGTGGAAAACCGAAAGTTC | 788 a.u. |
| CTACCCGCAGAGCACGTGAGCAAAAAATCAATTTTC | 14400 a.u. |
| CTACGAAGCACGTGACACGTTCCCTTCAAACATTTC | 21800 a.u. |

Repeated from above (block 3):
| Oligonucleotide | E-score |
| --- | --- |
| GAGATCGA | 0.0293 |
| ATCTTCCA | 0.0971 |
| GTCAGATA | 0.106 |
| ATGATTTC | 0.323 |
| TGTTAAAA | 0.295 |
| GTGTAGGA | 0.0472 |
| AGGAGCTC | -0.121 |
